Results collected from several papers.
Numbered parts are unrelated; each lists some results of a single study. Substitutions count along the parent as printed.

Sample 1 — technique: protein binding microarray; molecule type: double-stranded DNA, one strand shown; matrix: in vitro; tested at: not given; baseline: not given; reading: higher = stronger binding
Target: Histone acetyltransferase KAT6A, winged helix 1, GST fusion (KAT6A, Homo sapiens, UniProt Q92794, residues 1-85)
Setting: 8-mer, flanks averaged, mean of 2 arrays, mostly near background
Construct (chain): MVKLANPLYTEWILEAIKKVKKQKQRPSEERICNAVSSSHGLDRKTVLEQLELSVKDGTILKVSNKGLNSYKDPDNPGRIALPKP
Strand | E-score
CCGTCAAC | 0.144
AGCCCATC | -0.122
AATTAGTG | -0.106
CGCACAAG | 0.0643
AATGGTAA | -0.199
CGCTTTGC | 0.195
CAGCCCAA | -0.127
CCGTGGGC | 0.301
AGGCTCTA | -0.0816
GGGAGGAA | 0.0521
ACTTCCGG | 0.144
CTTTCAAA | -0.102
ACCGGTCA | 0.133
GAATAATA | -0.0802
GCACCGCC | 0.274
TGTGGTAA | -0.271
ACTCAATA | -0.198
AAAAGCCG | 0.335

Sample 2 — technique: RNA Bind-n-Seq; molecule type: RNA; matrix: in vitro; tested at: not given; baseline: input RNA pool; reading: higher = stronger binding
Target: RING finger protein unkempt homolog, zinc fingers 1-6, GST-SBP tag (UNK, Homo sapiens, UniProt Q9C0B0, residues 30-357)
Setting: RNA with constant flanks, human and mouse sites, ends assumed
Residues (chain): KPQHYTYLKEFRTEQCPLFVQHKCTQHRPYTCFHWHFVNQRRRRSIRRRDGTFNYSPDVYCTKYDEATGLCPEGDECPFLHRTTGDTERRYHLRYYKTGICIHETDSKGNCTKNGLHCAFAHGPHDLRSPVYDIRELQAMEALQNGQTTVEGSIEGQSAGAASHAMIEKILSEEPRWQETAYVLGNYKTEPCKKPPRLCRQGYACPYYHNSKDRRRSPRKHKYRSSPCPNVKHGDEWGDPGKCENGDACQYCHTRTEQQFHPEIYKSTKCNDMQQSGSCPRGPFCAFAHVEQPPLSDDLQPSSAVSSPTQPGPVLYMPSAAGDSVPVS
Strand | bound/input enrichment [ratio]
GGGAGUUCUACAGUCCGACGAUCACAAAGAAGAUGUCAGAAAACAAAGACAAGAAUGGCAAGAAAAGCAGCAAGAACAAGAAAAGUUUUAAAGAAAGAUGUUGCUUACUAUGAGUGUCAAGGUGACGGAUGAAGCCAGCUGCUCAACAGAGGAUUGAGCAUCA | 0.295
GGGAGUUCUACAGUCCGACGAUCCUGGUGGAGGAAGAUGAUGAGAUAAACCGAGACUGGUUGGAUUGGACCUAUUCCGCAGCGACGUUUUCUGUUUUCCUCAGCAUCCUUUACUUCUACUCCUCGCUGAGCAGAUUUCUCAUGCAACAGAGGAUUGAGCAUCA | 0.0968
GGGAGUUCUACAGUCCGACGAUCCCCAGGCGGUCUUCCUUCAGAUUGCAGACUGAAGCCCAGGAAGAUGAUUGGUAUGACUGUCAUAGGGAAAUACGUCUGAGUUUUUCUGAUACCUAUCAGGAUUAUGAGGAGUACUGGAGACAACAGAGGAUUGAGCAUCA | 0.17
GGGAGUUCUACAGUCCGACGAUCUGGAAACACUGGAGGUGUUGUUGGGGCCAUAGUACAAUCUCAUUUUCUAUUAAAAAUACAUGGCUAUGUAAAUAGGGCAUUUACAAUUUCUUAAAAGUCUUAUUUGCACCUUGUUUGGUUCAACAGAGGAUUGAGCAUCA | 0.491
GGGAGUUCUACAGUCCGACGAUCGUUCGUUUUCACUGCAGGACCAGGCACGAAAGUUAAAACAAAAUGAAGAUUUUUUCUGAAUCUCAUAAAACAGUGUUUGUUGUGGAUCACUGCCCUUAUAUGGCAGAAUCUUGCAGGCAGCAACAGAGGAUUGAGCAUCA | 0.255
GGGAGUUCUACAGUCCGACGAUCUCCAGCGCAGAGCCCCGUCCUGAUUGAUCGCAUCGCGGGGCUCAGAUGACUGUAAAAUGAAUAGAUGAAAUUCUUGCUUCUCGAAGAUUUUCUUGGGCAUCUCCCGGAAAGUGCGUUUUACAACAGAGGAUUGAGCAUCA | 0.218
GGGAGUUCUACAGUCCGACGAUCGAGUAUUUAUAAACCAGCGCAGGAAAGCAUCUCUCAUCUGCCAGUGCUAACCCGCACGAGCAGCGGAAGACACUUGUAGACGGCAAGAGCUGAUGUAAAGCUUCUACCAUGACUGUGUCACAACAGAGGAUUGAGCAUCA | 0.121
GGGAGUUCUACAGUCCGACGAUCAUCAUAAAAUACAUUGUCAACCGAGGAGAACACAAGAAUGGAGUUCUGGAAGAGGCAAUAAUAGCAACAAUUCUUAAAGAGGUUUUGGAAGGCUUAGACUAUCUACACAGAAACGGUCAGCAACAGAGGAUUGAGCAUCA | 0.843
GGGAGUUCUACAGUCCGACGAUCAUCACCCAGCUGAACCUCAGCGGCUACCGAAAGAACCUCCAGAAAACAGAUCUUUGUACCAUAAUUAAACGAUGCCCCAACCUCAUCCGCCUCGACUUAAGUGACAGUAUCAUGCUAAAGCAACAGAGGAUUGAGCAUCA | 0.253
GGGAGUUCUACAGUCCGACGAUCCAUCUCCUCGUCCGACCUCACAGGCCGACAAGAUACCUCUCGCAUGUCCACCUCACAGAAUAGCAUUCCUUUCGAACACCACGGCAAGUAGCUGCUCGUCUCCCAUCGGAAGGCAGCACUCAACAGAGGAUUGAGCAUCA | 0.292
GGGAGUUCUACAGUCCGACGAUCAGAAUUAUGGUAUAUGGUACAUGGUUGAAGUGCCAUUGUUUCAGUUAACAUUCCAGUAACCUUGUGGAUUAGGUUGGAGACAUGCUUUAUAGGUGACCCACUUACUGAGUGUUUAAAUAUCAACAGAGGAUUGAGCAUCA | 0.43

Sample 3 — technique: DHFR PCA, deep sequencing; matrix: yeast; with: (+)-ABA 2500 µM; baseline: wild-type fitted maximum; reading: higher = stronger binding
Target: ABI1, truncated, D143A, DHFR fusion (Arabidopsis thaliana)
Setting: methotrexate growth selection, single substitutions
Starting sequence: PYL1, truncated, DHFR fusion (Arabidopsis thaliana); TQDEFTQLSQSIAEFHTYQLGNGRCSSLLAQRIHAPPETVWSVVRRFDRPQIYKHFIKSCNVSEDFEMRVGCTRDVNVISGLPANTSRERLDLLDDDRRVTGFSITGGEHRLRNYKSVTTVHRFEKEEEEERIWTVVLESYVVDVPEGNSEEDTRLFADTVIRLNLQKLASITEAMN
Change | relative binding score [%]
Q7P | 90.3
E152F | 92.6
L164P | 45.9
G81C | 82
E129I | 107
S63Y | 90.5
E151F | 93.1
E131K | 105
R132S | 105
F66L | 93.7
G102Y | -2.15
P50A | 72.3
Q31D | 40.1
F157N | 2.57
S11I | 87.6
E89P | 6.23

Sample 4 — technique: universal PBM; molecule type: double-stranded DNA, one strand shown; matrix: in vitro; tested at: 600 nM; reading: higher = stronger binding
Target: Sal-like protein 4, full length isoform A (SALL4, Homo sapiens, UniProt Q9UJQ4, residues 1-1053)
UniProt Q9UJQ4, sequence (whole entry, looked up): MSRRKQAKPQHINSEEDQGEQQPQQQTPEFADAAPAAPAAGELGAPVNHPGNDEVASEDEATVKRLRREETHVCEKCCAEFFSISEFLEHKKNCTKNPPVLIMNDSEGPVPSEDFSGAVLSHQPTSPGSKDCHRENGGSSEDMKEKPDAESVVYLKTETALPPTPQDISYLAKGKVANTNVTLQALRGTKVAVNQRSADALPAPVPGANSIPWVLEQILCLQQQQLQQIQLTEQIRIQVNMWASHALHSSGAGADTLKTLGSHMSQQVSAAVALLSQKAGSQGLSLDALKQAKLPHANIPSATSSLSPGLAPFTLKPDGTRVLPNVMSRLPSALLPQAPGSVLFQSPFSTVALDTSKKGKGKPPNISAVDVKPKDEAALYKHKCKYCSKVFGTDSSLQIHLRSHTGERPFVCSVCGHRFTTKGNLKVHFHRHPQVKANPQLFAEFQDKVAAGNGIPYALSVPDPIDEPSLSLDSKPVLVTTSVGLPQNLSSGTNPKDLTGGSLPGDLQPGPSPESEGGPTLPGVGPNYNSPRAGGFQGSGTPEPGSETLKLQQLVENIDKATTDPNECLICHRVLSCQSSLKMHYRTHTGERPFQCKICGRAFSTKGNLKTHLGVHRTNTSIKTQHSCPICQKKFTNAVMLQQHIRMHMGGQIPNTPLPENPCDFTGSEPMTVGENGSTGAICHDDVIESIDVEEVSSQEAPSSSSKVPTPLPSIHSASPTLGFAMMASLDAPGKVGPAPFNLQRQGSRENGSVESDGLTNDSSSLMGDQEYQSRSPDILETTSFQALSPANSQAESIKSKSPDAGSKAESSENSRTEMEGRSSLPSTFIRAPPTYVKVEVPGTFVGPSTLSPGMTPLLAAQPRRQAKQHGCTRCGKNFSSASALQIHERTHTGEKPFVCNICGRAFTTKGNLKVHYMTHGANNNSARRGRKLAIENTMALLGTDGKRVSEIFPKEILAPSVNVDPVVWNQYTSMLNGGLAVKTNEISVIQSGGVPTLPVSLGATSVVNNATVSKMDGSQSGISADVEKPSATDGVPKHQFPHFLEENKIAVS
Setting: 8-mer, flanks averaged, mean of replicates
Strand | E-score
AGTCAGCG | -0.296
GAAGGAAA | 0.0888
CCCGTTGC | -0.254
TCTTTTCA | 0.177
ACAAGAAG | 0.115
AAACGCTG | -0.0767
CCCTGCTA | -0.208
CGATAGTC | 0.0274
CGTCTATA | 0.138
GGCCTGAC | -0.233
AAGCCGCT | -0.247
CACTGCAA | 0.0292
GTAGAGAA | -0.00248
CCGAGTCC | -0.162
AGACTCAG | -0.0745
GCCTCCGA | -0.239

Sample 5 — target: CCND2, cyclin fold, Cln2 fusion (human); technique: yeast growth competition, sequencing; matrix: yeast; setting: weak parent motif; baseline: not given; reading: higher = stronger binding
Starting sequence: CDC25A docking peptide (human); PPHRRRLLFACSP
Change | normalised enrichment score
R5L | 0.405
P1A | 0.172
P13S | 0.155
R4D | 0.118
L7I | 0.377
L7M | 0.0337
R4H | -0.115
F9T | 0.435
L7D | 0.0869
S12K | -0.0345
A10G | -0.21
R5W | -0.241
L7W | 0.0512
R5N | -0.26
R4W | -0.223
R5C | -0.0993
H3L | 0.178

Excerpt of the above (sample 5):
Change | normalised enrichment score
S12K | -0.0345
R4D | 0.118
P1A | 0.172
L7W | 0.0512
R4H | -0.115
R5W | -0.241
R5N | -0.26
L7I | 0.377
H3L | 0.178
L7M | 0.0337
A10G | -0.21
P13S | 0.155
